Published values from different studies.
Lines come from different studies, so protocols differ.
Target: Activated CDC42 kinase 1 (TNK2, Homo sapiens, UniProt Q07912)
Sequence of UniProt Q07912 (whole entry, looked up): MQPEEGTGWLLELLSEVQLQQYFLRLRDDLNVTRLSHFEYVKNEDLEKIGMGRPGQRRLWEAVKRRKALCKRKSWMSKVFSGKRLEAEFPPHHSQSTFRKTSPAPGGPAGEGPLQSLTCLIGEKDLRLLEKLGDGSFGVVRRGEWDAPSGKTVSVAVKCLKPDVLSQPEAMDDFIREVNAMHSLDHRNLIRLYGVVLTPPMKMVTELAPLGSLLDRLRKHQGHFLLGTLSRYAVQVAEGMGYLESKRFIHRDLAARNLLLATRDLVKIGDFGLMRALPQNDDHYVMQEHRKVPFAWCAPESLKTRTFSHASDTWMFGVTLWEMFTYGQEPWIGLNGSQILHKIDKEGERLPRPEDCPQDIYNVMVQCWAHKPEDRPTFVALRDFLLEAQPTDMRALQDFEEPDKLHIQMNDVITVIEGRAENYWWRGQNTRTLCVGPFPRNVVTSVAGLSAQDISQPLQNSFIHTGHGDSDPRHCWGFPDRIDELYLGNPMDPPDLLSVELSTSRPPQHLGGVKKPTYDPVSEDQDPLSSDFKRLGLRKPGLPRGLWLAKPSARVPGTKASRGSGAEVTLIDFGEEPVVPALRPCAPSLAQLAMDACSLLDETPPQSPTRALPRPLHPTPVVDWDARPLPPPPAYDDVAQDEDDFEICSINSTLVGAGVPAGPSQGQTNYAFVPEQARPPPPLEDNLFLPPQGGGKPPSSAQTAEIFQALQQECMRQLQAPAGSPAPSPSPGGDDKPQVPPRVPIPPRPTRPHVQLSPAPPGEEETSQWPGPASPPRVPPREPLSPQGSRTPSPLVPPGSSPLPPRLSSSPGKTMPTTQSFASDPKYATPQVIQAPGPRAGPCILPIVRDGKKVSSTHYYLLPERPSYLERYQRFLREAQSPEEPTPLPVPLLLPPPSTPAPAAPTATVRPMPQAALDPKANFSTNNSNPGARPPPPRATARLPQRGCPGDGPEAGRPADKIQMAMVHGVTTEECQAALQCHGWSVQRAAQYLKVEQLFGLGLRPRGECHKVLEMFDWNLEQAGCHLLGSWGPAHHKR

| SMILES | assay | test system | setting | how to read | endpoint | result |
| --- | --- | --- | --- | --- | --- | --- |
| CN1CCN(Cc2ccc(-c3ccc(CO[C@H]4CCC[C@@H]4NC(=O)c4cc(-c5cnn(C)c5)cnc4N)cc3)cc2)CC1 | enzyme activity, inhibitor |  | 0.1 µM |  | inhibition | 6% |
| CNC(=O)C1CCN(c2cc(C)c(F)cc2NC(=O)c2ccc(-c3cc(O)ccc3C)c(C)c2)CC1 | binding, competition with immobilised ligand |  | 1 µM |  | remaining binding | 41% |
| C=CC(=O)N1CCc2ccc(-n3c(=O)ccc4cnc5ccc(-c6cnn(C)c6)cc5c43)cc21 | KINOMEscan |  | 1 µM | reference: DMSO control | remaining binding | 100% |
| CCN1CCN(Cc2ccc(C(=O)Nc3ccc(C)c(NCc4cnc5[nH]ccc5c4OC)c3)cc2C(F)(F)F)CC1 | binding, competition with immobilised ligand |  | 1 µM |  | remaining binding | 4.8% |
| C=CC(=O)Nc1cccc(-c2cnc3[nH]cc(C(=O)NC(C)(C)C)c3n2)c1 | enzyme activity, inhibitor |  | 0.1 µM |  | inhibition | 3% |
| C=C1C[C@]2(C(=O)OC)C=C(C(=O)Nc3cccc(C(=O)Nc4ccc(Nc5nccc(-c6cccnc6)n5)c(C)c4)c3)C(=O)[C@H]1C2 | binding, competition with immobilised ligand |  | 1 µM |  | remaining binding | 94% |
| CN1CC[C@@H](COc2cnc(C#N)cc2-c2ccn3nc(NC(=O)C4CC4)cc3c2)C1 | enzyme activity, inhibitor |  | 1 µM |  | inhibition | 63% |
| Cc1cccc(O[C@H]2CCC[C@@H](C(C)CNCc3ccncc3)C2)c1 (relative stereo) | enzyme activity, inhibitor |  | 10 µM |  | inhibition | -2% |
| Cc1cnc2nc1Nc1cccc(c1)COC/C=C/COCc1cc(ccc1OCCN1CCOCC1)N2 | binding, competition with immobilised ligand |  | 0.1 µM |  | remaining binding | 36% |
| COc1cc(Nc2nc(C)cc(-c3cnn4nc(OC)ccc34)n2)cc(C(F)(F)F)c1 | binding, competition with immobilised ligand |  | 1 µM |  | remaining binding | 77% |
| Nc1ncc2c(n1)-c1c([nH]c3ccc(C4=CCOCC4)cc13)CCC2 | binding, competition with immobilised ligand |  | 1 µM |  | remaining binding | 100% |
| CCN1CCN(Cc2ccc(NC(=O)c3ccc(C)c(NC(=O)c4cncc(-c5cnn(C)c5)c4)c3)cc2C(F)(F)F)CC1 | binding, competition with immobilised ligand |  | 1 µM |  | remaining binding | 58% |
| C=CC(=O)N1CCCC(n2c(=O)c3ncccc3n(Cc3ccc(Oc4ccccc4)cc3)c2=O)C1 (stereo not shown) | cell-free assay, competition with immobilised ligand |  | 1 µM |  | remaining binding | 87% |
| COc1c(OCCCN2CCOCC2)ccc2c1N=C(NC(=O)c1cnc(N)nc1)N1CCN=C21 | kinase activity, inhibitor |  | 1 µM | reference: untreated control | remaining activity | 141% |
| CNC1C[S+]2CC[S+]3CC[S+](C1)[Ru-4]321([N]=C=S)[n]2c3ccc(OC)cc3c3c4c(c5cc(F)c[n+]1c5c32)C(=O)NC4=O (stereo not shown) | KinomeScan |  | 0.1 µM | reference: untreated | remaining binding | 100% |
| CN1CCN(c2ccc(Nc3ncc(Cl)c(Nc4ccccc4P(C)(C)=O)n3)cc2Br)CC1 | enzyme activity, inhibitor |  | 0.1 µM |  | inhibition | 98% |
| NC(=O)[C@@H](O)C[C@H]1CCc2sc3ncnc(O[C@H]4CC[C@H](N5CCOCC5)CC4)c3c21 | enzyme activity, inhibitor |  | 10 µM |  | inhibition | 38% |
| Cc1ccc(C(=O)Nc2ccc(CN3CCN(C)CC3)c(C(F)(F)F)c2)cc1C#Cc1cnc2cccnn12 | target engagement, NanoBRET | human cells |  |  | upper asymptote | 80.4 |
| Cc1ccc(-c2c(/C=C(\C#N)C(=O)NC(C)C)n(CCCO)c3ncnc(N)c23)cc1 | cell-free assay, competition with immobilised ligand |  | 1 µM |  | remaining binding | 100% |

Excerpt of the above:
| SMILES | assay | test system | setting | how to read | endpoint | result |
| --- | --- | --- | --- | --- | --- | --- |
| COc1c(OCCCN2CCOCC2)ccc2c1N=C(NC(=O)c1cnc(N)nc1)N1CCN=C21 | kinase activity, inhibitor |  | 1 µM | reference: untreated control | remaining activity | 141% |
| CNC1C[S+]2CC[S+]3CC[S+](C1)[Ru-4]321([N]=C=S)[n]2c3ccc(OC)cc3c3c4c(c5cc(F)c[n+]1c5c32)C(=O)NC4=O (stereo not shown) | KinomeScan |  | 0.1 µM | reference: untreated | remaining binding | 100% |
